Measurements of several laboratories.
Compare with care: the assays were run in different laboratories.
Method: steady-state kinetics
B1: UGT3A2 Y74N (Homo sapiens, UniProt Q3SY77); chain AKILTISTVGGSHYLLMDRVSQILQDHGHNVTMLNHKRGPFMPDFKKEEKSNQVISWLAPEDHQREFKKSFDFFLEETLGGRGKFENLLNVLEYLALQCSHFLNRKDIMDSLKNENFDMVIVETFDYCPFLIAEKLGKPFVAILSTSFGSLEFGLPIPLSYVPVFRSLLTDHMDFWGRVKNFLMFFSFCRRQQHMQSTFDNTIKEHFTEGSRPVLSHLLLKAELWFINSDFAFDFARPLLPNTVYVGGLMEKPIKPVPQDLENFIAKFGDSGFVLVTLGSMVNTCQNPEIFKEMNNAFAHLPQGVIWKCQCSHWPKDVHLAANVKIVDWLPQSDLLAHPSIRLFVTHGGQNSIMEAIQHGVPMVGIPLFGDQPENMVRVEAKKFGVSIQLKKLKAETLALKMKQIMEDKRYKSAAVAASVILRSHPLSPTQRLVGWIDHVLQTGGATHLKPYVFQQPWHEQYLLDVFVFLLGLTLGTLWLCGKLLGMAVWWLRGARKVKET
B2: TaNK (Thermoplasma acidophilum, UniProt Q9HJT3); chain MRFLAYFGHLNIDVLISVDSIPREGSVNVKDLRPRFGGTAGNFAIVAQKFRIPFDLYSAVGMKTHREYLAMIESMGINTGHVEKFEDESGPICYIATDGKKQVSFMHQGAMEKWKPQLADEYEYVHFSTGPNYLDMAKSIRSKIIFDPSQEIHKYSKDELKKFHEISYMSIFNDHEYRVFREMTGLSSPKVTTIVTNGERGSSLFMDGKKYDFPAIPSSGDTVGAGDSFRAGLYLALYNRRSIEKGMIYGTIIAHHVIDDGIENFSLNMEDLERETENYRRMFTKRS
B3: SLCO1B1 (Homo sapiens, UniProt Q9Y6L6); chain MDQNQHLNKTAEAQPSENKKTRYCNGLKMFLAALSLSFIAKTLGAIIMKSSIIHIERRFEISSSLVGFIDGSFEIGNLLVIVFVSYFGSKLHRPKLIGIGCFIMGIGGVLTALPHFFMGYYRYSKETNINSSENSTSTLSTCLINQILSLNRASPEIVGKGCLKESGSYMWIYVFMGNMLRGIGETPIVPLGLSYIDDFAKEGHSSLYLGILNAIAMIGPIIGFTLGSLFSKMYVDIGYVDLSTIRITPTDSRWVGAWWLNFLVSGLFSIISSIPFFFLPQTPNKPQKERKASLSLHVLETNDEKDQTANLTNQGKNITKNVTGFFQSFKSILTNPLYVMFVLLTLLQVSSYIGAFTYVFKYVEQQYGQPSSKANILLGVITIPIFASGMFLGGYIIKKFKLNTVGIAKFSCFTAVMSLSFYLLYFFILCENKSVAGLTMTYDGNNPVTSHRDVPLSYCNSDCNCDESQWEPVCGNNGITYISPCLAGCKSSSGNKKPIVFYNCSCLEVTGLQNRNYSAHLGECPRDDACTRKFYFFVAIQVLNLFFSALGGTSHVMLIVKIVQPELKSLALGFHSMVIRALGGILAPIYFGALIDTTCIKWSTNNCGTRGSCRTYNSTSFSRVYLGLSSMLRVSSLVLYIILIYAMKKKYQEKDINASENGSVMDEANLESLNKNKHFVPSAGADSETHC
B4: protein (Pseudomonas putida, UniProt Q1XGK8); chain MKEIKHFINGAFVGSASGRTFEDINPSNGQVIGHVHEAGRAEVDAAVKAARAALKGPWGKLSVAERAEILHRVADGITARFDEFLEAECLDTGKPKSLASHIDIPRGAANFKVFADLLKNVANEAFEMATPDGAGAINYAVRRPKGVIGVISPWNLPLLLMTWKVGPALACGNTVVVKPSEETPLTATLLGEVMQAAGVPAGVYNVVHGFGGDSAGAFLTEHPDVDAYTFTGETGTGEVIMRAAAKGVRQVSLELGGKNAGIVFADCDMDKAIEGTLRSAFANCGQVCLGTERVYVERPIFDEFVARLKAGAESLMIGPPDDASSNFGPLVSLKHREKVLSYYQQAVDDGGSVITGGGVPDMPAHLAGGAWVQPTIWTGLSDDSAVVTEEIFGPCCHIRPFDTEEEAIELANSLPYGLASAIWTENGSRAHRVAGQIEAGIVWVNSWFLRDLRTAFGGSKQSGIGREGGVHSLEFYTELKNICVKL
B5: Cop6 (Coprinopsis cinerea, UniProt A8NCK5); chain MPAALPYNVSRDNKWDIKKIIQDFFKRCDVPYQVIPYDTELWNACLKRAKEKGYPVEPDSPMSLYRSFKVGVVITRTSYGHIQDYEILIWVATFTAFVTYADDAFQEDIQHLHSFARTFLQNEKHEHPVLEAFAQFLRESSIRFSHFVANTVVSSALRFMMSIALEFEGQNVSVSTEAREYPGYIRILSGLSDIYALFAFPMDLPRSTYIQAFPEQIDYINGTNDLLSFYKEELDCETVNFISAAATSQQVSKLEVLRNAAEKAAYSYDVVVNVLKPYPEALAAWKSFARGFCYFHTSSPRYRLGEMFHDFEHDLVCKCASCTEI
B6: HCT R356D (Coleus scutellarioides, UniProt E8ZAP2); chain MKIHVRDSTLVRPSAATPAVSLWNSNVDLVVPNFHTPSVYFYRPSGADNFFDTAVMKAALGRALVSFYPMAGRLKRDEDGRVEIDCNAEGVLFVEAESDGTVDDYGDFAPSLELRRLIPAVDYSQGISAYPLLVLQVTFFKCGGVSLGVGMQHHAADGFSGLHFINTWSDMARGLDITLPPFIDRTLLSARDPPQPQFKHVEYQPPPAMKTYEPAETVVSIFKLTKDQLTTLKAKSKEDGNTTTYSSYEMLSGHVWRCTCLARGLPEEQETKLYIATDGRSRLQPQLPPGYFGNVIFTATPLAVAGDLGSKPVWYAASKIHDALARMDNDYLRSALDFLELQPDLKALVRGAHTFDCPNLGITSWVRLPIHDADFGWGRPIFMGPGGIAYEGLSFVLPSPTNDGSLSVAISLQAEHMKLFEKLLYQI
Sequence of UniProt Q9UYB2 (whole entry, looked up): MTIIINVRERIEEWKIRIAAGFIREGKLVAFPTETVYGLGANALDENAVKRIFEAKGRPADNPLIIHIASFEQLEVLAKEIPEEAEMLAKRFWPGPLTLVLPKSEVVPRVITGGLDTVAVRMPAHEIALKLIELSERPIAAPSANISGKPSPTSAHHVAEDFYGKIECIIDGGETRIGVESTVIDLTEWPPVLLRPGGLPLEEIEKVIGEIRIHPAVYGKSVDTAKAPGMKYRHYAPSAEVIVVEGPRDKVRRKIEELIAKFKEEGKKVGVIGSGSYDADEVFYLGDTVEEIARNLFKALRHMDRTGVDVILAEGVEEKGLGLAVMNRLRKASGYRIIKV
Sequence of UniProt P77488 (whole entry, looked up): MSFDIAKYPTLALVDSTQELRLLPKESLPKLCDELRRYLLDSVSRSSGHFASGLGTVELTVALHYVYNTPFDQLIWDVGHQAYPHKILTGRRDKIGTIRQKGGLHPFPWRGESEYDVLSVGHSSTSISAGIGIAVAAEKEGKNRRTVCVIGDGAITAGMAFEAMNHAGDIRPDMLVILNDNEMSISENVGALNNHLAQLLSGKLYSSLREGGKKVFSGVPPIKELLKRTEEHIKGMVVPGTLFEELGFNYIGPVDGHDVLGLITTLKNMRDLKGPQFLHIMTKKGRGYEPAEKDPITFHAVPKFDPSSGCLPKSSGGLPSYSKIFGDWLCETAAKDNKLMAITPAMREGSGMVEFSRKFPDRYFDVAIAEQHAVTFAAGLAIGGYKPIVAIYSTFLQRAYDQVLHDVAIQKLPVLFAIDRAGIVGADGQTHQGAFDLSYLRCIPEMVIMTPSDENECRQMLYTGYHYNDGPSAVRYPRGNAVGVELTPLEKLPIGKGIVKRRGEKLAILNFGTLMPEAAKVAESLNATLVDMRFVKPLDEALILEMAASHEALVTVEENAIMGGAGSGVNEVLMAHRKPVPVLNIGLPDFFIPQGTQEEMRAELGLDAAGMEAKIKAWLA
Sequence of UniProt P38999 (whole entry, looked up): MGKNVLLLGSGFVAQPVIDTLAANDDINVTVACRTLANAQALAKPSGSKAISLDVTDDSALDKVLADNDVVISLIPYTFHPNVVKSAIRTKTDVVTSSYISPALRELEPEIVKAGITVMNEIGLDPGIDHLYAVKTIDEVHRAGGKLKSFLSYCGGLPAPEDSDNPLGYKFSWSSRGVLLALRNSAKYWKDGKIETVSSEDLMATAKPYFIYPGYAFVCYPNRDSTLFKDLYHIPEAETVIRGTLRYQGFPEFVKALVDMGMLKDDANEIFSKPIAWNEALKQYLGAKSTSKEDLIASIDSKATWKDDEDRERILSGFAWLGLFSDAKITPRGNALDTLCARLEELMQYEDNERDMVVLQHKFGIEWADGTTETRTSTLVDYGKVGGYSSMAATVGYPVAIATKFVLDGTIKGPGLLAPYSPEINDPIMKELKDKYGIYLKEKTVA
Sequence of UniProt O15327 (whole entry, looked up): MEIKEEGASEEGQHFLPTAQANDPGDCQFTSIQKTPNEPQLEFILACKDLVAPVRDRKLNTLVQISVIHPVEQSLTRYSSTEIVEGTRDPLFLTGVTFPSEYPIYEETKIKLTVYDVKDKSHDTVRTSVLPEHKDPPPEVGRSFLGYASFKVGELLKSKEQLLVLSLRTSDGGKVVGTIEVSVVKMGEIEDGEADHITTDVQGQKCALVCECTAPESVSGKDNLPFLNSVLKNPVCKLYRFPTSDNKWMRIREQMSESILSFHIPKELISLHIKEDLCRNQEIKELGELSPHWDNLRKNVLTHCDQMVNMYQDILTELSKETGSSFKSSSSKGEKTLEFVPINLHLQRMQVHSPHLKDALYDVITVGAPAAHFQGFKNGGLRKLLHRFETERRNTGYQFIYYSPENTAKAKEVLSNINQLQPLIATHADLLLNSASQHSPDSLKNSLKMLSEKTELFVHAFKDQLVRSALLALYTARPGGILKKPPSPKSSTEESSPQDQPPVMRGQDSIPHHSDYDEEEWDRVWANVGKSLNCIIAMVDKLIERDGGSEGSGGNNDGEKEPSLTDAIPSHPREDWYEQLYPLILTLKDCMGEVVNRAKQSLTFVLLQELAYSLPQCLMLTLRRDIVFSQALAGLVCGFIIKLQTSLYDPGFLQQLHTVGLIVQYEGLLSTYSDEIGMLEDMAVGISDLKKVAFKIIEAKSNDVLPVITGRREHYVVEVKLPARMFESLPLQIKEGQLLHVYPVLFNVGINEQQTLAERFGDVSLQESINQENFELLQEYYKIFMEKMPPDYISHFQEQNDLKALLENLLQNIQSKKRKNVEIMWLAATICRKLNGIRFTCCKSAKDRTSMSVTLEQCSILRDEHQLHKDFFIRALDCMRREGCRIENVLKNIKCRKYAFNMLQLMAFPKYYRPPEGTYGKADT

Substance	substrate	conditions	Km [µM]
B1 (UGT3A2 Y74N)	O=c1ccn([C@@H]2O[C@H](CO[P@@](=O)(O)O[P@@](=O)(O)O[C@H]3O[C@H](CO)[C@@H](O)[C@H](O)[C@H]3O)[C@@H](O)[C@H]2O)c(=O)[nH]1	pH 7.4, 37 °C, not purified, added: 1-OH-pyrene 16 µM, MgCl2 10 mM, alamethicin	3360
B2 (TaNK)	Nc1ncnc2c1ncn2[C@@H]1O[C@H](COP(=O)(O)OP(=O)(O)OP(=O)(O)O)[C@@H](O)[C@H]1O	pH 8, 22 °C, apparent, added: inosine, Mg2+	46.9
B3 (SLCO1B1)	COc1cc2c(cc1OC)[C@@H]1Cc3ccc(OC)c(OC)c3CN1CC2	pH 7.4, 37 °C, not purified	18.6
Saccharopine reductase (Saccharomyces cerevisiae, UniProt P38999)	N[C@@H](CCCCN[C@@H](CCC(=O)O)C(=O)O)C(=O)O	pH 9, 25 °C, added: saccharopine	770
dxs (Escherichia coli, UniProt P77488)	O=C(O)C(=O)CO		47
protein (Strongylocentrotus purpuratus, UniProt A0A7M7RGC6)	CC(C)(COP(=O)(O)OP(=O)(O)OC[C@H]1O[C@@H](n2cnc3c(N)ncnc32)[C@H](O)[C@@H]1OP(=O)(O)O)[C@@H](O)C(=O)NCCC(=O)NCCSC(=O)CC(=O)O	without acetyl-CoA, added: malonyl-CoA	0.94
B4 (protein)	O=C/C=C/C=C(\O)C(=O)O	pH 8.5, 25 °C, NaCl 50 mM, added: NAD+ 200 µM	1.3
Sua5 (Pyrococcus abyssi, UniProt Q9UYB2)	Nc1ncnc2c1ncn2[C@@H]1O[C@H](COP(=O)(O)OP(=O)(O)OP(=O)(O)O)[C@@H](O)[C@H]1O	pH 8, 50 °C, added: L-threonine, ATP 5–500 µM, MnCl2 1 mM, MgCl2 10 mM	5.5
INPP4B (Homo sapiens, UniProt O15327)	O=[N+]([O-])c1ccc(OP(=O)(O)O)cc1	pH 8, 25 °C, added: pNPP 10-100 mM	38000
B5 (Cop6)	CC(C)=CCC/C(C)=C/CC/C(C)=C/CO[P@@](=O)(O)OP(=O)(O)O	pH 8, 30 °C, added: MgCl2 10 mM	7.6
AphC (Rhodococcus jostii, UniProt Q0S9X1)	CCc1ccc(O)c(O)c1	pH 8, 25 °C, apparent, added: O2	1.19
B6 (HCT R356D)	NCc1ccc(O)c(O)c1	pH 8, pseudo-first-order, added: p-coumaroyl CoA	36000
protein fragment (Trypanosoma cruzi)	Nc1ncnc2c1ncn2[C@@H]1O[C@H](COP(=O)(O)OP(=O)(O)OP(=O)(O)O)[C@@H](O)[C@H]1O	pH 6, room temperature, added: MnCl2 1 mM	103

Repeated from above:
Substance	substrate	conditions	Km [µM]
Saccharopine reductase (Saccharomyces cerevisiae, UniProt P38999)	N[C@@H](CCCCN[C@@H](CCC(=O)O)C(=O)O)C(=O)O	pH 9, 25 °C, added: saccharopine	770
AphC (Rhodococcus jostii, UniProt Q0S9X1)	CCc1ccc(O)c(O)c1	pH 8, 25 °C, apparent, added: O2	1.19
